Measurements pooled from the literature.
Parts stem from different laboratories: compare values within a part only. Changes are numbered by the printed parent chain.

Block 1
Target: ABI1, truncated, D143A, DHFR fusion (Arabidopsis thaliana)
Method: DHFR PCA, deep sequencing
Medium: yeast
Notes: methotrexate growth selection, single substitutions
Together with: (+)-ABA 0.39 µM
Relative to: wild-type fitted maximum
Direction: higher = stronger binding
Starting sequence: PYL1, truncated, DHFR fusion (Arabidopsis thaliana); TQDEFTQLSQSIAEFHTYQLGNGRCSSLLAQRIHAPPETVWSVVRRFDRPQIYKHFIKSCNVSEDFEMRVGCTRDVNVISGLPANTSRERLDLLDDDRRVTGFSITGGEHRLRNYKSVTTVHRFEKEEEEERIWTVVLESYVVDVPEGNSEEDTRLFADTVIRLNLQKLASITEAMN
Change | relative binding score
A175N | 25.6%
R69F | 2.98%
C72N | 18%
D153S | -13.7%
T160R | -2.59%
L91V | -6.55%
L166C | -3.98%
D144C | -17.7%
N149R | 14.2%
T160F | 57.5%
I133V | 66.4%
E14F | -19.1%
S26M | 8.5%

Block 2
Target: CCNB1, cyclin fold, Cln2 fusion (human)
Method: yeast growth competition, sequencing
Medium: yeast
Notes: strong parent motif
Relative to: not given
Direction: higher = stronger binding
Starting sequence: PKN2 docking peptide (human); VSAVRKLDFSDTM
Change | normalised enrichment score
VSAVRKWDFSDTM [L7W] | -0.0235
VSAVDKLDFSDTM [R5D] | -0.0583
VSAVRKNDFSDTM [L7N] | -0.0426
VSIVRKLDFSDTM [A3I] | 5.49
VSAVRKEDFSDTM [L7E] | -0.345
VSAVRKLEFSDTM [D8E] | 3.43
VSAVRKLDQSDTM [F9Q] | 0.346
VSAVRKLHFSDTM [D8H] | 2.69
VSASRKLDFSDTM [V4S] | 0.764
VSAVRHLDFSDTM [K6H] | 2.51
VSAVRKLDFSFTM [D11F] | 1.82
VSAVRKLDFSETM [D11E] | 3.98
VRAVRKLDFSDTM [S2R] | 2.75
VSAVRKLSFSDTM [D8S] | 4.38
VSAVRKLDFSDPM [T12P] | 3.94
VSYVRKLDFSDTM [A3Y] | 2.5
VSANRKLDFSDTM [V4N] | 1.44
VSAVRKMDFSDTM [L7M] | 0.0865
VSAVTKLDFSDTM [R5T] | 1.56
VEAVRKLDFSDTM [S2E] | 3.48
VLAVRKLDFSDTM [S2L] | 3.19
VSAVRLLDFSDTM [K6L] | 0.971
VSAVRKLDFSDHM [T12H] | 3.78
VSLVRKLDFSDTM [A3L] | 4.13
VSWVRKLDFSDTM [A3W] | 3.6

Block 3
Target: Protein C-ets-1 (ETS1, Homo sapiens, UniProt P14921, residues 1-441, K379A, full length assumed)
Method: protein-binding microarray
Molecule type: double-stranded DNA, one strand shown
Medium: in vitro
Tested at: not given
Notes: k-mer, scored over probes, only values ≥0.25
Direction: higher = stronger binding
Target sequence (chain): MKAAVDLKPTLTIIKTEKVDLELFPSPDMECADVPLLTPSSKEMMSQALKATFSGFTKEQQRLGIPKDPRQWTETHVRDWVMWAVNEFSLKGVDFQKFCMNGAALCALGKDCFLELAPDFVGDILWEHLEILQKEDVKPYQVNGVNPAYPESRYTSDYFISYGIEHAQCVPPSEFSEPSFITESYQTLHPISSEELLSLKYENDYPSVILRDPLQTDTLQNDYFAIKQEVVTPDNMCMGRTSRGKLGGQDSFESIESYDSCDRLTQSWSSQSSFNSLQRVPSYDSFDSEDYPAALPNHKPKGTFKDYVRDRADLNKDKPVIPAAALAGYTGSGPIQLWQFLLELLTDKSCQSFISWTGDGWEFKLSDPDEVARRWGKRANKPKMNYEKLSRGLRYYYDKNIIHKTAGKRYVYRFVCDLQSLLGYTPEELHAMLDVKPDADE
Oligonucleotide | E-score
GACGTCTA | 0.276
CTCCCGCC | 0.272
ATGTTAAC | 0.269
ATATACTA | 0.295
GCCACACA | 0.254
GCCCGCCC | 0.312
ACGGATAT | 0.292
CCAATAAC | 0.252
ATGCGGAA | 0.262
ATAGTTTG | 0.308
CGGTAGAC | 0.262
CCGGTGCC | 0.316
GTATTTGA | 0.271
GGAAACAC | 0.282
ACCGGTAC | 0.452
CGCCGGAA | 0.376
CCGGCACA | 0.25
ACCGACAG | 0.383
ACCGGCGC | 0.369
AGTTCCGG | 0.382
ACCTAACC | 0.26
CTACAGTA | 0.286
ACCGGTTG | 0.42
CCGGTTAC | 0.385

Block 4
Target: BATF2, bZIP domain (human)
Method: DHFR protein complementation
Medium: yeast
Notes: single substitutions, most at no-binding floor
Relative to: wild-type JUN-FOS pair
Direction: higher = stronger binding
Starting sequence: JUN, bZIP domain (human); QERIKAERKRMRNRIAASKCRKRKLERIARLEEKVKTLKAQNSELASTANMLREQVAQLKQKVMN; partner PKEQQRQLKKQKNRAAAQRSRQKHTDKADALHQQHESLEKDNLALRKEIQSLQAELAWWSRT
Change | binding fitness
E33C | -0.621 natural log
V35M | -0.888 natural log
S43K | -0.0596 natural log
A29L | -0.648 natural log
A49W | -1.05 natural log
L52V | -1.22 natural log
T48M | -0.195 natural log
S47F | -0.311 natural log
V35I | -0.127 natural log
I28D | -0.481 natural log
E54P | -1.33 natural log
M51T | -0.215 natural log
S47I | -0.243 natural log
E32F | -1.08 natural log
Q41T | -0.447 natural log

Block 5
Target: Sal-like protein 4, full length isoform B (SALL4, Homo sapiens, UniProt Q9UJQ4-2, residues 1-616)
Method: universal PBM
Molecule type: double-stranded DNA, one strand shown
Medium: in vitro
Tested at: not given
Notes: 8-mer, flanks averaged, mean of replicates
Direction: higher = stronger binding
Oligonucleotide | E-score
AGGCTCGG | -0.228
ATAAAAAG | 0.307
AGGTGAGA | -0.00605
ATAAGCCG | 0.0996
AATGATCA | 0.19
CCTGAACC | -0.0637
ATAGTAAT | 0.323
GCGCGTAA | -0.0427
GATGCTAA | -0.0491
ATACCCGC | -0.0798
CCGTACGA | 0.0504
GAATCTAC | 0.0414
CCGTTAGA | 0.0115
AGAAGCCA | -0.0498
CTTGCCAA | 0.0306
CTGAGGGC | -0.272

Block 6
Target: OGT, full length, His-tagged (human)
Method: phage display, sequencing
Medium: in vitro
Tested at: 1 µg OGT
Notes: single substitutions, 15-mer displayed peptide, unchanged parent 6.14
Relative to: input library
Direction: higher = stronger binding
Starting sequence: peptide; VAYPNSYMPKYQIST
Change | fold enrichment [fold]
V1Y | 6.49
P4V | 5.83
S14E | 8.43
Y3W | 8.79
K10V | 3.47
V1H | 9.38
A2F | 1.45
S14N | 6.79
A2T | 5.79
P4R | 15.5
I13K | 0.625
K10T | 0.879
I13H | 0.906

A few entries again (block 6):
Change | fold enrichment [fold]
V1Y | 6.49
P4V | 5.83
S14E | 8.43
Y3W | 8.79
K10V | 3.47
V1H | 9.38
A2F | 1.45
S14N | 6.79
A2T | 5.79
P4R | 15.5
